Assay results collected from several papers.
Numbered parts are unrelated; each lists some results of a single study. Changes are numbered by the printed parent chain.

Sample 1 — technique: RNA Bind-n-Seq; form: RNA; matrix: in vitro; tested at: 200 nM; setting: whole 134-nt RNA, ends assumed; added: 150 mM KCl; reference: input library; reading: higher = stronger binding; endpoint: log2 enrichment
Target: Ras GTPase-activating protein-binding protein 1, full length (G3BP1, Homo sapiens, UniProt Q13283)
Chain of UniProt Q13283 (whole entry, looked up): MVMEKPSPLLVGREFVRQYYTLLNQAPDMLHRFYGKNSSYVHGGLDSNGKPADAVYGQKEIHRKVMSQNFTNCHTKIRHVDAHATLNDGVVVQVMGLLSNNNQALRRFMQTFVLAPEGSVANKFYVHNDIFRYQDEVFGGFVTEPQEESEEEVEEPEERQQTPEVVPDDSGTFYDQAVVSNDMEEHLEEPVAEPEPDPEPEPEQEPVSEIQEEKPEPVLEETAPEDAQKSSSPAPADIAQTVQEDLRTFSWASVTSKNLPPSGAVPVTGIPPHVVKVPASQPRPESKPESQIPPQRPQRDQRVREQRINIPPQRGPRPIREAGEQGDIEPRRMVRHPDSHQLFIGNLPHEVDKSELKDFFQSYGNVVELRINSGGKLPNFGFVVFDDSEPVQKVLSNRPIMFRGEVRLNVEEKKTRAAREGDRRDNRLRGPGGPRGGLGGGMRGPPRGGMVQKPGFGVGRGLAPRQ
Oligonucleotide = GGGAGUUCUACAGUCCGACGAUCUCCUGUGCUACACAUCGUAUGUACCGAAUCGGUUUUUUUGGAAAAAAAGGUUUUUUUGGAAAGUAUUAUGUUACGCCGUUCGGAUCUGCAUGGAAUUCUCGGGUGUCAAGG; value = -1.02
Oligonucleotide = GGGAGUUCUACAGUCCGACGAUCCUGUGCUACACAUCGUAUGUACCGAAUCGGGAAAAAAAGGGUUUUUUUGGGAAAAAAAGGGAAAGUAUUAUGUUACGCCGUUCGGAUCUGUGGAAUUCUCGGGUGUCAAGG; value = -1.31
Oligonucleotide = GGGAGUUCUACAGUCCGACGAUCUUCCUCAAGUCCUGUGCUACACAUCGUAUGUACCGAAUCGUGUGUGUGUGUAAAGUAUUAUGUUACGCCGUUCGGAUCUGCACUUCCAGCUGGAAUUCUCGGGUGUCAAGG; value = -0.413
Oligonucleotide = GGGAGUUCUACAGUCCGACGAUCUAACUUUAGAGGAGGAUCUGAUGGAUAUGGCAGUGGACGUGGAUUUGGGGAUGGCUAUAAAGGGUAUGGAGGAGGACCUGGAGGUGGCAAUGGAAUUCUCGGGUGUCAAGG; value = 0.363
Oligonucleotide = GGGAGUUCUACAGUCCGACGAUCUAACUUUAGAGGAGGAUCUGAUGGAUAUGGCAGUGGACGUGGAUUUGGGGAUGGCUAUAAUGGGUAUGGAGGAGGAUCUGGAGGUGGCAAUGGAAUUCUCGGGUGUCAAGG; value = 0.39
Oligonucleotide = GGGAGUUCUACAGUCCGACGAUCGAUUCCCUCCACAUGCUGCACGCGCAUCUCGCCCCCAGGGGCACUGCCUGGAAGAUUCAGGAGCCUGGGCGGCCUUCGCUUACUCUCACCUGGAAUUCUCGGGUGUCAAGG; value = 1.01
Oligonucleotide = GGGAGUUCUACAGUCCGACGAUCUGAAGACACAGCAUCCACCCGAUCUUCAUUCACUGUCCAAGACCUUAAACCUUUUACAGAAUAUGUGUUUAGGAUUCGCUGUAUGAAGGAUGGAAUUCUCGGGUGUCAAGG; value = -0.12
Oligonucleotide = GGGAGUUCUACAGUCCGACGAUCUCAAGUCCUGUGCUACACAUCGUAUGUACCGAAUCGUGUGUGUGUGUGUGUGUGAAAGUAUUAUGUUACGCCGUUCGGAUCUGCACUUCCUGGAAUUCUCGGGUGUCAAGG; value = 0.194
Oligonucleotide = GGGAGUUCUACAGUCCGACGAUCGCAGGAAGUAAAAACAAAUGGAAAUGCUUCGGAUAGUGGCAAGGGUGGGGGUUGCUAAGGAAAGGGUGGGAUGGGAGUGGGUAAAGAGUUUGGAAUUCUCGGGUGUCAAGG; value = 0.786
Oligonucleotide = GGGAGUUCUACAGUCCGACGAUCUGGGAGGUGGAUUUUGUUUAUUUUUUUAGCUCAUUUCCAGGGGUGGGAAUUUUUUUUUAAUAUGUGUCAUGAAUAAAGUUGUUUUCGAAAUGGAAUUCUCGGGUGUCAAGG; value = 0.456
Oligonucleotide = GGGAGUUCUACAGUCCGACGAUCUGGCCCUGGUGGCAUGCGGGGAGGAAGAGGUGGCCUCAUGGAUCGUGGUGGUCCCGGUGGAAUGUUCAGAGGUGGCCGUGGUGGAGACAUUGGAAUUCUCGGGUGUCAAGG; value = 0.133
Oligonucleotide = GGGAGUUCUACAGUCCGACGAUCCUGUGCUACACAUCGUAUGUACCGAAUCGGAAAAAAAGGGGAAAAAAAGGGAAAAAAAGGGGAAAGUAUUAUGUUACGCCGUUCGGAUCUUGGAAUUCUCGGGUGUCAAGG; value = -0.757
Oligonucleotide = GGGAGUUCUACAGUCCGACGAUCUGGCCCUGGUGGCAUGCGGGGAGGAAGAGGUGGCCUCAUGGUUCGUGGUGGUCCCGGUGGAAUGUUCAGAGGUGGCCGUGGUGGAGACAGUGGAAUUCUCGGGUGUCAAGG; value = 0.0869
Oligonucleotide = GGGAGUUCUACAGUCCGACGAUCGAAAGAAGUAAAAACAAAUGGAAAUGCUUCGGAUAGUGGCAGGGGUGGGGGUUGCUAAGGAAAGGGUGGGAUGGGAGUGGGUAAAGAGUUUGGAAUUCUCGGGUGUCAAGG; value = 0.625

Sample 2 — target: CCNB2, cyclin fold, Cln2 fusion (human); technique: yeast growth competition, sequencing; matrix: yeast; setting: weak parent motif; reference: not given; reading: higher = stronger binding; endpoint: normalised enrichment score
Starting sequence: SAMHD1 docking peptide (human); ASKSRVQLFKDDP; partner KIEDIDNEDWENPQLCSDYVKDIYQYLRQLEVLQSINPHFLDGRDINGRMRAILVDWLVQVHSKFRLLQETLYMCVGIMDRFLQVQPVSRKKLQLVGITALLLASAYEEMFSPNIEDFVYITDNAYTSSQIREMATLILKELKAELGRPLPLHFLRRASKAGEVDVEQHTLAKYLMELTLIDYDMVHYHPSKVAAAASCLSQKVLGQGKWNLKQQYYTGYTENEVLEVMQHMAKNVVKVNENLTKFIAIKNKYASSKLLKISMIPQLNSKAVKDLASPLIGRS
Variant = ARKSRVQLFKDDP [S2R]; value = 0.233
Variant = ASKSKVQLFKDDP [R5K]; value = 0.201
Variant = ASKSRVPLFKDDP [Q7P]; value = 0.0114
Variant = ASKSRVQDFKDDP [L8D]; value = 0.291
Variant = ASKSMVQLFKDDP [R5M]; value = -0.537
Variant = ASKSREQLFKDDP [V6E]; value = 0.401
Variant = ASKSCVQLFKDDP [R5C]; value = 0.233
Variant = ASKSRVQLFKDYP [D12Y]; value = 0.572
Variant = ASKSFVQLFKDDP [R5F]; value = 0.101
Variant = AHKSRVQLFKDDP [S2H]; value = 0.489
Variant = ASKSRVALFKDDP [Q7A]; value = -0.104
Variant = ASKSRVDLFKDDP [Q7D]; value = 0.143
Variant = ASDSRVQLFKDDP [K3D]; value = -0.498
Variant = ASKSRVQLFNDDP [K10N]; value = 0.0179
Variant = ASKPRVQLFKDDP [S4P]; value = -0.227

Sample 3 — technique: Sort-seq; measured: YFP reporter; matrix: E. coli; setting: PhoQ-PhoP variant library; added: 10 µM Mg2+; reference: high Mg2+ state; reading: higher = stronger signaling; endpoint: fold induction
Substance: PhoQ, residues 284 288 289 292 302 303 SQSLSM
target = PhoP, residues 12 14 15 18 19 GMGLL (Escherichia coli, UniProt P23836); value = 2.97
target = PhoP, residues 12 14 15 18 19 LFHKL (Escherichia coli, UniProt P23836); value = 0.864
target = PhoP, residues 12 14 15 18 19 QQAYL (Escherichia coli, UniProt P23836); value = 12.4

Sample 4 — target: DDIT3, bZIP domain (human); technique: DHFR protein complementation; matrix: yeast; reference: wild-type JUN-FOS pair; reading: higher = stronger binding; endpoint: binding fitness
Setting: single substitutions, most at no-binding floor
Starting sequence: JUN, bZIP domain (human); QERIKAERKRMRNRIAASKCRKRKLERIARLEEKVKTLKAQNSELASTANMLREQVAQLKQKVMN; partner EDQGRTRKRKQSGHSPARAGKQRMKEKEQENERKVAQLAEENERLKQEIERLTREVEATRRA
Variant = E54F; value = -0.277 natural log
Variant = A49G; value = -1.04 natural log
Variant = L31H; value = -0.895 natural log
Variant = K36C; value = 0.0507 natural log
Variant = M51H; value = -0.00918 natural log
Variant = N42Q; value = -0.0352 natural log
Variant = E44M; value = 0.054 natural log
Variant = T37P; value = -1.33 natural log
Variant = V56T; value = -0.763 natural log
Variant = L52M; value = -0.446 natural log
Variant = L31G; value = -0.821 natural log
Variant = S43P; value = -1.22 natural log
Variant = V35S; value = -0.624 natural log
Variant = L38C; value = -1.24 natural log
Variant = Q55E; value = 0.0218 natural log
Variant = A49L; value = 0.0281 natural log
Variant = L45V; value = -1.21 natural log
Variant = E33A; value = -0.0115 natural log

A few entries again (sample 2):
Variant = AHKSRVQLFKDDP [S2H]; value = 0.489
Variant = ASKSRVALFKDDP [Q7A]; value = -0.104
Variant = ASKSRVDLFKDDP [Q7D]; value = 0.143
Variant = ASDSRVQLFKDDP [K3D]; value = -0.498
Variant = ASKSRVQLFNDDP [K10N]; value = 0.0179
